Experimental data collected from several papers.
pIC50: −log10 of the molar value.

CCC(=O)N1CCC(COCC(=O)N2CCN(c3nc(-c4cnc(N)nc4C(F)F)nc(N4CCOC[C@@H]4C)n3)CC2)CC1 — pIC50 (SK-OV-3; western blot, measured: phospho-PKB/Akt Ser473; 2 h): 7.34
C=CC(=O)Nc1cccc(Oc2nc(Nc3ccc(N4CCN(C)CC4)cc3)nc3ccoc23)c1 — pIC50 (TMD8 RAC2 knockout; calcium flux, FLIPR; 2 h preincubation): 7.64
C[C@@H]1CN(C(=O)c2ccc(NC(=O)c3cc(O[C@H](C)c4c(Cl)ccc(F)c4Cl)c(N)nn3)cc2)C[C@H](C)N1 — pIC50 (KARPAS-299 (NPM1-ALK); cell viability): 7.98
C=CC(=O)N1CCC(COCC(=O)N2CCN(c3nc(-c4cnc(N)nc4C(F)F)nc(N4CCOC[C@@H]4C)n3)CC2)CC1 — pIC50 (SK-OV-3; FOXO1 translocation, kinase translocation reporter; 2 h): 7.03
Cc1cc(Nc2ncc(Cl)c(Nc3ccccc3S(=O)(=O)C(C)C)n2)c(OC(C)C)cc1C1CCNCC1 — pIC50 (NB1 (ALK amplification, exon 2-3 deletion); cell viability): 7.91
CC#CC(=O)N1CCC[C@H]1c1nc(-c2ccc(C(=O)Nc3ccccn3)cc2)c2c(N)nccn12 — pIC50 (Ramos; calcium flux, FLIPR; 2 h preincubation): 8.00
C[C@H](Nc1ccc2c(c1)OCCn1cc(N3C(=O)OC[C@H]3C(F)F)nc1-2)C(N)=O — pIC50 (SK-OV-3; western blot, measured: phospho-PKB/Akt Ser473; 2 h): 8.01
CCCCN1C[C@H](O)[C@@H](O)[C@@H](O)[C@H]1CO — pIC50 (sample H patient fibroblasts; Gb3 level lowering, LC-MS/MS, measured: Gb3 d18:1/22:0; 216 h): 4.67
C=CC(=O)N1CCC([C@@H]2CCNc3c(C(N)=O)c(-c4ccc(Oc5ccccc5)cc4)nn32)CC1 — pIC50 (TMD8 RAC2 knockout; calcium flux, FLIPR; 4 h preincubation): 8.96
COc1cc(N2CCC(N3CCN(C)CC3)CC2)ccc1Nc1ncc(Cl)c(Nc2ccccc2P(C)(C)=O)n1 — pIC50 (ALK fusion wild-type cell lines; cell viability; geometric mean over 8 lines): 7.97

Some of these lines once more:
CC#CC(=O)N1CCC[C@H]1c1nc(-c2ccc(C(=O)Nc3ccccn3)cc2)c2c(N)nccn12 — pIC50 (Ramos; calcium flux, FLIPR; 2 h preincubation): 8.00
